Published values gathered from unrelated publications.
A part holds a random share of what one study measured. Changes are numbered by the printed parent chain.

Sample 1
Target: Interferon regulatory factor 5, full length, phosphomimetic (IRF5, Homo sapiens, UniProt Q13568-2, residues 1-514, K96S/S451D/S453D/S456D/S462D)
Method: protein-binding microarray
Form: double-stranded DNA, one strand shown
Matrix: in vitro
Concentration: 250 nM
Notes: 60-bp whole probe
Together with: salmon DNA 0.4 mg/ml
Relative to: random background probes
Direction: higher = stronger binding
Quantity: log fluorescence
All sequences stand within: GCCTAGCAC … GTCTTGATTCGCTTGACGCTGCTG
GACGGTGCCGGTTTCGGGACGTGCTAG: 2.12 z-score
GTCGGTTTCCTTCTCCTGACGTGCTAG: 1.47 z-score
TTAGGGATCCTACTGCTTTAGTGCTAG: -0.329 z-score
CTTTCTATCTCTGTTTTTGCGTGCTAG: 3.37 z-score
GACGATTTCAGACTGAAGACGTGCTAG: 0.072 z-score
TTAGGAATGCTTATCCTTTAGTGCTAG: -0.127 z-score
GACGGTATCGACTATCGGGATGTGCTA: 4.03 z-score
TCAATTTTCACGGTGGGACTGTGCTAG: 0.481 z-score
TTAGGTCGCGGTATCGGTTAGTGCTAG: 3.7 z-score
TTAGAACTGAGACTGGTTTAGTGCTAG: -0.173 z-score
TTAAGTCTCCTACTGCTTTAGTGCTAG: 0.204 z-score
TTAGATTTCAGTCTCGACTAGTGCTAG: 2.12 z-score
GACGGACTGGGGATCGGGACGTGCTAG: -0.505 z-score
TTAGGTATCGACCCTGGGTTAGTGCTA: 1.63 z-score
GACGGTATCGAAACTGGGGACGTGCTA: 6.45 z-score
GACTGTCTCCTTCTCCTGACGTGCTAG: 0.0496 z-score
TTATATATCAGTTTCGATTAGTGCTAG: 9.8 z-score
TTAGGTTTCGACACTGGGTTAGTGCTA: 5.56 z-score

Sample 2
Target: CCNA1, cyclin fold, Cln2 fusion (human)
Method: yeast growth competition, sequencing
Matrix: yeast
Notes: strong parent motif
Relative to: not given
Direction: higher = stronger binding
Quantity: normalised enrichment score
Parent: E2F1 docking peptide (human); PPVKRRLDFETDH
PPVKRRLDIETDH [F9I]: 0.444
PPVKRNLDFETDH [R6N]: 0.623
PPVKWRLDFETDH [R5W]: -0.057
PPVKRRLDFESDH [T11S]: 1.98
PPGKRRLDFETDH [V3G]: 0.548
PPVKRRLDFEWDH [T11W]: 1.78
PPWKRRLDFETDH [V3W]: 0.661
PPVKRRLSFETDH [D8S]: 1.4
PPVKRCLDFETDH [R6C]: 1.68
PPVKRRLDFENDH [T11N]: 1.94
PPVKRRLDFQTDH [E10Q]: 1.99
PPVKRRLQFETDH [D8Q]: 1.35
PPVKRDLDFETDH [R6D]: 0.0601
PPVKCRLDFETDH [R5C]: 0.309
PPVKRRLDFETKH [D12K]: 1.54
PPVKRRLDFEIDH [T11I]: 1.89
PPVKRRKDFETDH [L7K]: 0.374
PPCKRRLDFETDH [V3C]: 1.63
PPVKRRLDFVTDH [E10V]: 1.51
PPVKRRLDFEGDH [T11G]: 1.78
PPVQRRLDFETDH [K4Q]: 1.63
PPTKRRLDFETDH [V3T]: 2.08
PPVKRRLDFCTDH [E10C]: 1.85
PPVKRRLDFEPDH [T11P]: 1.95
PPVVRRLDFETDH [K4V]: 1.34

Sample 3
Target: Ras GTPase-activating protein-binding protein 1, full length (G3BP1, Homo sapiens, UniProt Q13283)
UniProt Q13283, sequence (whole entry, looked up): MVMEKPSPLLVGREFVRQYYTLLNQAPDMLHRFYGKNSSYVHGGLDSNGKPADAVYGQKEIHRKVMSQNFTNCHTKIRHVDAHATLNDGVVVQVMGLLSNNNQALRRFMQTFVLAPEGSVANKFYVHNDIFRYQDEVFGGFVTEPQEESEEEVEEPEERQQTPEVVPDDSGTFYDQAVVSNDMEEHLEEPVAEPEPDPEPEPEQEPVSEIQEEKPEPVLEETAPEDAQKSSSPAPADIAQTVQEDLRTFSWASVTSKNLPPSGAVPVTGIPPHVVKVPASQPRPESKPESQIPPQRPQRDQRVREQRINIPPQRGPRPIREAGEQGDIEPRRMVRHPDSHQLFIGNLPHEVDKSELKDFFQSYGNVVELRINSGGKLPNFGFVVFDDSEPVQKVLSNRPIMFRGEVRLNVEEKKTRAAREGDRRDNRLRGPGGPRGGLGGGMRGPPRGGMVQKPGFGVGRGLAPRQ
Method: RNA Bind-n-Seq
Form: RNA
Matrix: in vitro
Concentration: 200 nM
Notes: whole 134-nt RNA, ends assumed
Together with: 150 mM LiCl
Relative to: input library
Direction: higher = stronger binding
Quantity: log2 enrichment
Each molecule: 7-deaza-guanosine replaces G
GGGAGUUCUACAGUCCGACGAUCCAAGUCCUGUGCUACACAUCGUAUGUACCGAAUCGGGUGGGUUUGGGUUUUUGGGAAAGUAUUAUGUUACGCCGUUCGGAUCUGCACUUCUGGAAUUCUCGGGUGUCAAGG: 0.00361
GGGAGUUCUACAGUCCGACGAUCAGUCCUGUGCUACACAUCGUAUGUACCGAAUCGGUUUUUGGUUUUUGGAAAAAAAGGAAAGUAUUAUGUUACGCCGUUCGGAUCUGCACUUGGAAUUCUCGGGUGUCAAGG: -2.02
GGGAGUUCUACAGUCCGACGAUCGCAGGAAGUAAAAACAAAUGGAAAUGCGUCGGAUAGUGGCAGGGGUGGGGGUUGCUAAGGAAAGGGUGGGAUGGGAGUGGGUAAAGAGUUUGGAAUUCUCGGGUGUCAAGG: -0.173
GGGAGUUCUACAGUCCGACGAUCAAGUCCUGUGCUACACAUCGUAUGUACCGAAUCGGUUUUGGGGUUUUGGUUUUGGGGAAAGUAUUAUGUUACGCCGUUCGGAUCUGCACUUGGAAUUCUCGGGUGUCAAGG: 0.0941
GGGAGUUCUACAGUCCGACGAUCUAACUUUAGAGGAGGAUCUGAUGGAUAUGGCAGUGGACGUGGAUUUGGGGAUGGCUAUAAUGGGUAUGGAGGAGGACCUGGAGGUUGCAAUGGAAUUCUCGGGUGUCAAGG: 0.0196
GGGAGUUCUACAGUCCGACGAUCUGUGCUACACAUCGUAUGUACCGAAUCGGGGCCCCCCCGGGCCCCCCCGGGCCCCCCCGGGGAAAGUAUUAUGUUACGCCGUUCGGAUCUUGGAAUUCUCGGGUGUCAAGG: 0.0912
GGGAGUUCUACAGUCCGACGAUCAGUCCUGUGCUACACAUCGUAUGUACCGAAUCGGAAAAAGGGGAAAAAGGAAAAAGGGAAAGUAUUAUGUUACGCCGUUCGGAUCUGCACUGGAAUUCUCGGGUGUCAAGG: -0.48
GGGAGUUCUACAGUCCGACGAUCUCCUGUGCUACACAUCGUAUGUACCGAAUCGGCCCCCCCGGGCCCCCCCGGCCCCCCCGGAAAGUAUUAUGUUACGCCGUUCGGAUCUGCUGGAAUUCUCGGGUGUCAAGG: 0.558
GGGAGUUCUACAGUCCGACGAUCACCAUGCAGGUGGGCAUCUUUGGGAAGUGGGGCAAGGGGGGGAUAGGGAGGGGGGUAACACUUUGGGAACAGGUGGUCCCAGGUCGUUACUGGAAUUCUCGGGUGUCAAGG: 0.367
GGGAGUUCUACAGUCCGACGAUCUUUGAAGAUCAGCUUCAGCAAUGGUUGUCUGAAGACUCAGGAGCAUUUACGGAUUUAACUUCCCUUCCCCUCUAUCUUCCUCAGACUCUAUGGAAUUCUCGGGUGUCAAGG: 0.583
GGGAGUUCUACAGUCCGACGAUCCAAGUCCUGUGCUACACAUCGUAUGUACCGAAUCGGUUUUGGUUUUGGUUUUGGGGAAAGUAUUAUGUUACGCCGUUCGGAUCUGCACUUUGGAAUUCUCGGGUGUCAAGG: -0.918

Sample 4
Target: CEP164, C-terminal peptide (human)
Method: DHFR complementation, deep sequencing
Matrix: yeast
Notes: single substitutions, model-inferred values
Relative to: wild type
Direction: higher = weaker binding
Quantity: binding free energy change
Parent: PDZK1, PDZ domain 2 (human); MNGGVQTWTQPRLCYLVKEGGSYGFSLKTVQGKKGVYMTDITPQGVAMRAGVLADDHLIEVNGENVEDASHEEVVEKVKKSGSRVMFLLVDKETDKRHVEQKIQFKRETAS; partner HNRVKVYRF
N65M: 0.728 kcal/mol
E93Q: -0.1 kcal/mol
L27Y: 0.807 kcal/mol
W8K: -0.046 kcal/mol
K106Q: -0.104 kcal/mol
M86E: -0.208 kcal/mol
F105E: -0.354 kcal/mol
E93L: -0.137 kcal/mol
L27T: 0.472 kcal/mol
V5G: -0.0909 kcal/mol
I59M: 0.272 kcal/mol
G20D: 0.2 kcal/mol
S81F: 0.761 kcal/mol
A110N: -0.0455 kcal/mol
V17W: -0.0623 kcal/mol
E76A: 0.0246 kcal/mol
V99R: -0.288 kcal/mol

Sample 5
Molecule: PhoQ, residues 284 288 289 292 302 303 GTAMQF
Method: Sort-seq
Item: YFP reporter
Matrix: E. coli
Notes: PhoQ-PhoP variant library
Together with: 10 µM Mg2+
Relative to: high Mg2+ state
Direction: higher = stronger signaling
Quantity: fold induction
PhoP, residues 12 14 15 18 19 VGHWL (Escherichia coli, UniProt P23836): 1.33
PhoP, residues 12 14 15 18 19 TPWTL (Escherichia coli, UniProt P23836): 0.987
PhoP, residues 12 14 15 18 19 LHHYF (Escherichia coli, UniProt P23836): 18.8

Sample 6
Target: RNA binding protein fox-1 homolog 2, RRM domain, GST-SBP tag (RBFOX2, Homo sapiens, UniProt O43251-10, residues 100-194)
Method: RNA Bind-n-Seq
Form: RNA
Matrix: in vitro
Concentration: 365 nM
Notes: natural RNA segment, single round, ends assumed
Relative to: no-protein control
Direction: higher = stronger binding
Quantity: RBNS enrichment (R)
Target sequence (chain): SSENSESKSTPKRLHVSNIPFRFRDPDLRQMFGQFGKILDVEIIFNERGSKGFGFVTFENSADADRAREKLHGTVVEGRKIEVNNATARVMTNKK
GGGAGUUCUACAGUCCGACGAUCUUGAGGGGUUGAGGGGUUGAUCUGAGCUGGUGCCACUGCGAGCACAGCCUACAUGGUGAAUCCAGAGUGUGCCCGGUUCCACAUCACCUCUUCAUGGUCUGCUGUGCACAUGGAAUUCUCGGGUGCCAA: 0.437
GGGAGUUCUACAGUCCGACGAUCGCCUGUCCCCACUGUCUAUCCAGUGCUUACUUCAACCCUAGAGGCUGCCUUGACCCGAGGAGGCAUCUCACUGGUUCCGUACUUGUGUGUGCCCUACGCCUCACUGCUGGUGGAAUUCUCGGGUGCCAA: 0.34
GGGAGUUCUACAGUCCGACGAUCGCCAGAUCCCUUGCACACAGCCCAGGGCGCACACCAUAUCACACGUGGCCUUGUCUAGACCCAGUCCUGAGCAGAGGAGCCUGGUGCCCUCCCAGUCCACAGGGUCUUCCUGGAAUUCUCGGGUGCCAA: 0.426
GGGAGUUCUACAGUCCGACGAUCCUUCUGCUGUUCUUCACUUCUGGGAAAUUGAAGUGUCUUCUGUUCCCAAGGAAGCUCCUUCCUGUUUGUUUUGUUUUCUAAGAUGUUCAUUUUUAAAGCCUGGCUUCUUAUGGAAUUCUCGGGUGCCAA: 2.01
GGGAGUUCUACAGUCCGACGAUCUACAAAGGUGGACUUAGAGCCAAGCACAAUCUCACAACGAUUCCAGAAUUCCCUAGAGACCUCUUGGGGGGCAACGGGCAGGCUGCAUCUCCCAGGAAACCAGGCAAGGGUGGAAUUCUCGGGUGCCAA: 0.533
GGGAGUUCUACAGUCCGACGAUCAUAUAGCAAGAACGAAAAGACUGUGCAAGGCCUAGAGCCAGCAAAGAUGCUGAUGUAGCCAGGCCAUGCCGGAAGGAGCAGGGUGAAGCUUCCCCUCUCCCUACAAAUGGUGGAAUUCUCGGGUGCCAA: 0.331
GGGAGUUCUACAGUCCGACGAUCGAAAGAUGUAGCAGCAUAUUCACUAUCCGUUAAUCCUUCUUUCUUUGAGGCUGGAACUUGCUCUCUCUGCCCCUAUUUCCUUGUAAAGAGGGAGCACAUUGACUUGGGAAUGGAAUUCUCGGGUGCCAA: 0.276
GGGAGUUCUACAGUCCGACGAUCGGGUUUCCUGGACCACCCACUGCUUCUCCCCAACCCUGAUGCGCUGACAUUCCCUUAGCACCAGCUGUCCCACCUCCAGGGUCCUGACCAGGUCAGAGAUGUCCCCUGCCUGGAAUUCUCGGGUGCCAA: 0.392
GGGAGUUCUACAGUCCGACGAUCCCCCCUCACUUCCCAAGACAACCCCCAGCUUCAGGUCCUCAUGGGGAGGGGAGGGCACGUUCUUGACACAUGGGAACUUCGCUCAGGAGGGCCUCCCCUUCCCCUCUCCCUGGAAUUCUCGGGUGCCAA: 0.707
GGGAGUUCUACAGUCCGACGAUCUCUAGCUUUUAAAGAACUACAUGUGUCUUUAAAAGUAUUUAUUGUGCAAAUGUACUAUAGCAGUUCAUCUUCAUGUUCCAGCCUUACUCUGUGUUAAUACUGCUUCACAAUGGAAUUCUCGGGUGCCAA: 0.526
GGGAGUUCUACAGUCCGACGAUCACACCAGCUCUACUCUUUAGUAAAAUUGUAAAAGGCUGCCAUUAUGGACAUUAGGUAUCCCAACAUAACCAUCUGGAGUGUGUCCAGUUUGUUCUUCAUAGGACCAAUUUUGGAAUUCUCGGGUGCCAA: 0.216
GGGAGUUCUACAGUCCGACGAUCGUAAAUUGUAUAUUUUUAUGAACUUUUGAAGCACACACUCCUGUUUCCCUCUGUGUAGCUUUGUGGGGAUUUCAUGUAUAUAUGCUGUCUGAAAGAAUCCAGAGGUUGGAUGGAAUUCUCGGGUGCCAA: 0.788

For quick reference, copied from above (sample 4):
F105E: -0.354 kcal/mol
V5G: -0.0909 kcal/mol
L27Y: 0.807 kcal/mol
G20D: 0.2 kcal/mol
E76A: 0.0246 kcal/mol
V99R: -0.288 kcal/mol
S81F: 0.761 kcal/mol
